Measured values of several laboratories.
± marks the error that the study gave.

Chains of the proteins cited; added tags and fusions are not shown. Residues count along the entry.
UniProt P49582, 23-502 limits assumed: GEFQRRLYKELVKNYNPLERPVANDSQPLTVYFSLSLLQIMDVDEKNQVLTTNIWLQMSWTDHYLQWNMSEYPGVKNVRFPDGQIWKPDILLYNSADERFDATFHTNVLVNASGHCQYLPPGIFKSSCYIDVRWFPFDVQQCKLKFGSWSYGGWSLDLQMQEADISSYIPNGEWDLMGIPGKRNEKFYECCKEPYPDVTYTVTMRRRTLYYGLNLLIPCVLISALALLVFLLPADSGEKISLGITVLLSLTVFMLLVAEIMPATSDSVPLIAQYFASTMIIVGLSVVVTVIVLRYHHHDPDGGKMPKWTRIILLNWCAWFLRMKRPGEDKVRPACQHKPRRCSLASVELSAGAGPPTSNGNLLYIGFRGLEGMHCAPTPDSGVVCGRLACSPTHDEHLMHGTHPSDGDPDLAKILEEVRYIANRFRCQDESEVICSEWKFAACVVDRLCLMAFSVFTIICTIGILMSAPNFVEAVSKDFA
UniProt P41146, whole entry: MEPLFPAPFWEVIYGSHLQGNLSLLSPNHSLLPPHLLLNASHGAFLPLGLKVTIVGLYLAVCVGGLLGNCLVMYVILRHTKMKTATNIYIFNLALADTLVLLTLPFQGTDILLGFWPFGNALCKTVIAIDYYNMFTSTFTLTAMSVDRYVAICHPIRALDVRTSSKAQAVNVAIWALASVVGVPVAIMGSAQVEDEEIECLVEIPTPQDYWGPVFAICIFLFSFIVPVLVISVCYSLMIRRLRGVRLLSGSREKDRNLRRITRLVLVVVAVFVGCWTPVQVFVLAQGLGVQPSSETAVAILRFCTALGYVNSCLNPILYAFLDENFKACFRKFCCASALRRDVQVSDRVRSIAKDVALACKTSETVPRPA

| Molecule | target or system | assay | system | setting | how to read | quantity | value |
| --- | --- | --- | --- | --- | --- | --- | --- |
| CCOC(=O)OC(=O)OCC | TTX-resistant Na channel (sheep heart) | – | sheep heart membranes | 10 mM, 1 h, pH 5.5 or 7.5, room temperature | – | specific [3H]saxitoxin binding abolished | > 50% |
| O=C([O-])c1ccc[n+]([C@@H]2O[C@H](COP(=O)(O)O)[C@@H](O)[C@H]2O)c1 | nicotinamide mononucleotide adenylyltransferase R133A, His-tagged | substrate | – | – | reference: R133A over wild type | K0.5 increase | 64 fold |
| O=[As]c1ccccc1 (stereo not drawn) | guinea pig Y2 receptor | – | CHO-Y2 particulates | 30 µM | reference: control | Y2 receptor density change | ≤ 15% |
| 13,19-didesmethyl spirolide C | nicotinic acetylcholine receptor (Torpedo marmorata) | binding | – | Pecten maximus extract 25 mg/mL, added: biotin-α-bungarotoxin | – | IC50 | 0.00257 ± 0.00106 µM |
| NC12CC3CC(CC(C3)C1)C2 | Influenza A virus | viral replication | MDCK, A/Swine/Iowa/11-0909/2010 | – | – | EC50 | < 1 µM |
| COP(=O)(OC)OC=C(Cl)Cl | acetylcholinesterase, mouse | enzyme activity, inhibitor, modified Ellman method | Mus musculus, serum | sc, 1 h | – | ED50 | 9.43 mg/kg |
| carbon monoxide | Clostridium botulinum H-NOX Y139F | binding | – | – | – | Kd | 0.33 µM |
| Nc1ncnc2c1ncn2[C@@H]1O[C@H](COP(=O)(O)OP(=O)(O)OP(=O)(O)O)[C@@H](O)[C@H]1O | nicotinamide mononucleotide adenylyltransferase R133A, His-tagged | substrate | – | – | reference: R133A over wild type | kcat decrease | 40 fold |
| C[C@H](NP(=O)(Nc1ccn([C@H]2CS[C@@H](COP(=O)(N[C@@H](C)C(=O)OCc3ccccc3)N[C@@H](C)C(=O)OCc3ccccc3)O2)c(=O)n1)N[C@@H](C)C(=O)OCc1ccccc1)C(=O)OCc1ccccc1 | L1210 | cell proliferation | – | 2 d | – | IC50 | > 250 µM |
| O=S1(=O)c2ccc(F)cc2-c2ccc(N3CCN4CCC3CC4)cc21 [fluorine-18 labelled] | Chrna7 (Mus musculus, UniProt P49582) | – | mouse, cortex | dose not given, 90 min, unit not given | reference: cerebellum | binding potential BPND | 2 ± 0.3 |
| CCN1C(=O)C=CC1=O | TTX-resistant Na channel (sheep heart) | – | sheep heart membranes | 50 mM, 2 h, added: [3H]saxitoxin 20 nM | reference: untreated control | [3H]saxitoxin bound | ~41% |
| C[C@H](NP(=O)(Nc1ccn([C@H]2CS[C@@H](CO)O2)c(=O)n1)N[C@@H](C)C(=O)OCc1ccccc1)C(=O)OCc1ccccc1 | L1210 | cell proliferation | – | 2 d | – | IC50 | ≥ 250 µM |
| Cc1cc(/C=C/C#N)cc(C)c1Oc1nc(NC2CCN(Cc3ccc(P(C)(C)=O)cc3)CC2)nc2ccsc12 | Human immunodeficiency virus 1 | viral replication | MT-4, Y181C mutant | – | reference: doravirine EC50 over compound EC50 | potency ratio | ~4.98 fold |
| O=C1Cc2ccccc2N1C1CCN([C@H]2CC[C@@H]3CCCc4cccc2c43)CC1 (relative stereo) | Nociceptin receptor (OPRL1, Homo sapiens, UniProt P41146) | radioligand displacement | – | added: [3H]N/OFQ | – | Ki | 0.0021 ± 0.00014 µM |
| pinnatoxin A | nicotinic acetylcholine receptor (Torpedo marmorata) | binding | – | added: biotin-α-bungarotoxin | – | Hill slope | 1.31 ± 0.21 |
| nitric oxide | Clostridium botulinum H-NOX Y139F | binding | six-coordinate heme-His complex | – | – | Kd | 0.00012 µM |
| pinnatoxin G | nicotinic acetylcholine receptor (Torpedo marmorata) | binding | – | methanol standard, added: biotin-α-bungarotoxin 80 nM | – | IC50 | 0.0201 ± 0.0133 µM |
| CCOP(=O)(OCC)Oc1ccc([N+](=O)[O-])cc1 | recombinant PON1 variant, gene-shuffled, mainly rabbit | enzymatic hydrolysis, substrate | – | pH 7.4, 1% methanol | – | Km | 900 ± 200 µM |

For quick reference, copied from above:
| Molecule | target or system | assay | system | setting | how to read | quantity | value |
| --- | --- | --- | --- | --- | --- | --- | --- |
| CCOC(=O)OC(=O)OCC | TTX-resistant Na channel (sheep heart) | – | sheep heart membranes | 10 mM, 1 h, pH 5.5 or 7.5, room temperature | – | specific [3H]saxitoxin binding abolished | > 50% |
